Measurements pooled from the literature.
Every numbered part comes from another study and shows a few of its results, in no order. Substitutions count along the parent as printed.

Sample 1 — technique: DHFR PCA, dose-response; sample: yeast; notes: Hill fit, mean, not affinity; added: (+)-ABA, dose series; direction: lower = more sensitive
Target: ABI1, truncated, D143A, DHFR fusion (Arabidopsis thaliana, UniProt P49597)
Starting sequence: PYL1, truncated, DHFR fusion (Arabidopsis thaliana, UniProt Q8VZS8); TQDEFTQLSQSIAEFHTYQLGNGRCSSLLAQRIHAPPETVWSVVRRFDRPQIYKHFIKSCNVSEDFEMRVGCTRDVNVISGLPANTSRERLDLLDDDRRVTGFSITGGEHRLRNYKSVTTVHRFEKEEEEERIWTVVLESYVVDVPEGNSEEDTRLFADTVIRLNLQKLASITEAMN
With `L20H` the ABA EC50 was 2.58 µM.
`V76Q` has an ABA EC50 of 683 µM.
`G81A` has an ABA EC50 of 108 µM.
The ABA EC50 of `E67S` is reported as 3.5 µM.
`R123V` gave an ABA EC50 of 14 µM.
`L156D` gave an ABA EC50 of 7.64 µM.
`V76N` gave an ABA EC50 of 80 µM.
The ABA EC50 of `N85E` is reported as 0.92 µM.
`Q167D` gave an ABA EC50 of 11.4 µM.
For `P36M`, the ABA EC50 was 5.9 µM.
`D65F` has an ABA EC50 of 10.6 µM.
With `R69Y` the ABA EC50 was 11 µM.
`T120V` gave an ABA EC50 of 752 µM.
`D153T` gave an ABA EC50 of 122 µM.
`T1D` gave an ABA EC50 of 1.7 µM.
With `V44K` the ABA EC50 was 301 µM.
For `S9W`, the ABA EC50 was 5.54 µM.
`Q7K` gave an ABA EC50 of 3.18 µM.
The ABA EC50 of `Y53G` is reported as 255 µM.
`I172R` gave an ABA EC50 of 43.9 µM.
With `D96C` the ABA EC50 was 88.7 µM.
For `C72I`, the ABA EC50 was 4.88 µM.
For `V118F`, the ABA EC50 was 58.9 µM.
With `G71P` the ABA EC50 was 74.7 µM.
For `P146D`, the ABA EC50 was 666 µM.

Sample 2 — technique: competition protein-binding microarray; form: double-stranded DNA, one strand shown; sample: in vitro; concentration: 2 µM; added: Cbf1 competitor, 0.05 µM; direction: higher = stronger binding
Target: Phosphate system positive regulatory protein PHO4, full length, GST-tagged (PHO4, Saccharomyces cerevisiae, UniProt P07270, residues 1-312)
Notes: whole 60-bp probe, lowest competitor level
Target sequence (chain): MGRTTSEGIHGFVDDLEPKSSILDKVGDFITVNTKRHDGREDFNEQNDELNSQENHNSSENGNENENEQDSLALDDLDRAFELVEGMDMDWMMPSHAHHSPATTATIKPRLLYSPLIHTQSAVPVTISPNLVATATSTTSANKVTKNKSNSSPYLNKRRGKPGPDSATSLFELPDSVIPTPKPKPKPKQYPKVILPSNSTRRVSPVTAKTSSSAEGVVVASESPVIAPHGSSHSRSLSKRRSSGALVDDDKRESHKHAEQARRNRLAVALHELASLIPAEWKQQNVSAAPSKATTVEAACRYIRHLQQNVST
The fluorescence intensity of `AGTACCACCTCTTTGAACGTGACAAAAGGTAGTAATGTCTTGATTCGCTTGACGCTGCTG` is reported as 11000 a.u.
The fluorescence intensity of `CTTTCCCGATCTTGTCACCGGACTTTAGCACATTTGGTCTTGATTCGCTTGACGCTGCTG` is reported as 3550 a.u.
`CTTCTGTAAATTTGAATCGTGGGTGGACGCGCCCCGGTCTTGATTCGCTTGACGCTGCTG` has a fluorescence intensity of 8190 a.u.
`AGCAGTTTGAATTGTCATGTGCAAACAACCAGCAATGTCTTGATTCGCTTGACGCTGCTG` gave a fluorescence intensity of 8230 a.u.
With `TGGACAGCGCTTCCCAGCGTGCTTTACATAATGCTTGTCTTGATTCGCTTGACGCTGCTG` the fluorescence intensity was 7180 a.u.
With `TGCGCAACAACTTGTCGGGTGGGTGTATGTCTAGAAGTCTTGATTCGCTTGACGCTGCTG` the fluorescence intensity was 4650 a.u.
With `AGAGCACTACAACAAGGCGTGGGTACTGCATAAAGAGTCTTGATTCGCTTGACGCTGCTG` the fluorescence intensity was 8440 a.u.
For `ACTGTTGAAAAAAAGCACGCTGCAGTTGCATCAGGGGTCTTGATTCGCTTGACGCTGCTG`, the fluorescence intensity was 9080 a.u.
With `TCACTCCTAGTTTTCCATGTGGCTTCAGCTCGAGGAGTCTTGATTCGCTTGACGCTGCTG` the fluorescence intensity was 7210 a.u.
`CACATAACCACTTGTCACCTGTGCATTCTTACTTTTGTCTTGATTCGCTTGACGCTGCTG` gave a fluorescence intensity of 5880 a.u.
`CGGGGTTAAGTTTGATAAGTGGGTGGCTTGCAGCAGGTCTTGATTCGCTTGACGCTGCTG` gave a fluorescence intensity of 4490 a.u.
`ACATCTTTCAATTTGCACGGGTGCAACCTCAAATATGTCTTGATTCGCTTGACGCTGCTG` has a fluorescence intensity of 8400 a.u.
`GGACAACATGGACTCATCGTGATGGGACTGATATGAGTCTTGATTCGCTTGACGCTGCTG` has a fluorescence intensity of 7290 a.u.
`TCCAACCTGCAAGGGGTCGTGCCAGTGACGAAAAGAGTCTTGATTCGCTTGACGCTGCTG` gave a fluorescence intensity of 11100 a.u.
With `TTTTCAATCGTTGGCTACGTGCGGACACTTGTTTTGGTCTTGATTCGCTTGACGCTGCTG` the fluorescence intensity was 8080 a.u.
`AAAAAGAAACTCCATCACGATGTAAGTACAAATGGTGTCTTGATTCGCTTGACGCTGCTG` gave a fluorescence intensity of 8610 a.u.
`CTTTCCCGATCTTGGCATGTGGGTGTAGCACATTTGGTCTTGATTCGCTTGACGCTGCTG` has a fluorescence intensity of 11600 a.u.
With `TACCAGAATTGTGAGAACATGACAAAACCAACTACGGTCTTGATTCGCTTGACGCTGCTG` the fluorescence intensity was 5690 a.u.
With `AAAAGTATACTCGGAAACGTGATGGAATACCTTAGGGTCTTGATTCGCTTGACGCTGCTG` the fluorescence intensity was 10700 a.u.
The fluorescence intensity of `ATTTCCGGGACGAGTCACGCTGTTATCAATGACTTTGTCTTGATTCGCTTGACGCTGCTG` is reported as 6190 a.u.
With `AAAGCGGTAATTTGGTTAGTGGGTGCAGATATCTATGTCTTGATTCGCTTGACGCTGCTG` the fluorescence intensity was 4160 a.u.
`CAGAAGCCGCGATTTCACATGCCGGCCATTATGGCAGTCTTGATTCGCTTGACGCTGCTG` gave a fluorescence intensity of 5170 a.u.
`CTAACGAAGGTTTGAAACGTGGGTGACAAGCCAAGTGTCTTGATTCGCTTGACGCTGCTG` gave a fluorescence intensity of 12600 a.u.
The fluorescence intensity of `AAATTACTAAGTTGACCTGTGGGTGACGCCGTATGAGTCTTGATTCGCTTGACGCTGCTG` is reported as 4090 a.u.
For `AACTGTGAATGGGGATGCGTGACGGGTTCGTCTCTGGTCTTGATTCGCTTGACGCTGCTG`, the fluorescence intensity was 7080 a.u.

Sample 3 — target: CCNA1, cyclin fold, Cln2 fusion (human); technique: yeast growth competition, sequencing; sample: yeast; notes: weak parent motif; reference: not given; direction: higher = stronger binding
Starting sequence: CDC6 docking peptide (human); TLKGRRLVFDNQL; partner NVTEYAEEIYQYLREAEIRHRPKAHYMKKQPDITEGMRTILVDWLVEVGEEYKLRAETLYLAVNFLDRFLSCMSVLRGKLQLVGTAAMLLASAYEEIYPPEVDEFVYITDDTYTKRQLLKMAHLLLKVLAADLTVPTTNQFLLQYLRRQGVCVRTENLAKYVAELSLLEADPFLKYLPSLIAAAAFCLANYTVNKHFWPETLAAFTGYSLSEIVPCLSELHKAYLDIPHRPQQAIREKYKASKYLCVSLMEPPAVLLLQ
Under “normalised enrichment score”, `G4N` is recorded as 0.0857.
Under “normalised enrichment score”, `N11I` is recorded as -0.0837.
Under “normalised enrichment score”, `L7G` is recorded as 0.35.
`D10M`: “normalised enrichment score” 0.41.
Under “normalised enrichment score”, `R5F` is recorded as 0.175.
For `L2M`, “normalised enrichment score” read 0.0475.
For `F9I`, “normalised enrichment score” read 0.413.
`R5I` — result for “normalised enrichment score”: -0.111.
Under “normalised enrichment score”, `V8Y` is recorded as -0.0463.
Under “normalised enrichment score”, `R6D` is recorded as 0.0823.
Under “normalised enrichment score”, `G4Y` is recorded as 0.0758.
Under “normalised enrichment score”, `Q12P` is recorded as 0.0734.
`L13A`: “normalised enrichment score” 0.552.
Under “normalised enrichment score”, `D10G` is recorded as -0.221.
`D10S` — result for “normalised enrichment score”: 0.452.
`T1A` — result for “normalised enrichment score”: 0.421.
`Q12M`: “normalised enrichment score” 0.0987.
`R6E`: “normalised enrichment score” -0.211.
`F9S`: “normalised enrichment score” 0.142.
Under “normalised enrichment score”, `V8F` is recorded as 0.543.
Under “normalised enrichment score”, `T1G` is recorded as 0.495.
Under “normalised enrichment score”, `F9M` is recorded as 0.46.
Under “normalised enrichment score”, `K3Q` is recorded as 0.307.
For `V8E`, “normalised enrichment score” read 0.334.
For `D10W`, “normalised enrichment score” read -0.026.

Sample 4 — target: FOSB, bZIP domain (human); technique: DHFR protein complementation; sample: yeast; reference: wild-type JUN-FOS pair; direction: higher = stronger binding
Notes: single substitutions, most at no-binding floor
Starting sequence: JUN, bZIP domain (human); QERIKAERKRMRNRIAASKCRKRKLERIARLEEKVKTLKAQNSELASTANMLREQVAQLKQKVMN
With `L45Q` the binding fitness was -1.34 natural log.
With `L52Q` the binding fitness was -1.54 natural log.
`L52D` gave a binding fitness of -1.33 natural log.
For `V35P`, the binding fitness was -1.21 natural log.

A few entries again (sample 2):
With `AGAGCACTACAACAAGGCGTGGGTACTGCATAAAGAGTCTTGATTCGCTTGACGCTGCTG` the fluorescence intensity was 8440 a.u.
`AAAAAGAAACTCCATCACGATGTAAGTACAAATGGTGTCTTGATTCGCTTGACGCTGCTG` gave a fluorescence intensity of 8610 a.u.
With `TGGACAGCGCTTCCCAGCGTGCTTTACATAATGCTTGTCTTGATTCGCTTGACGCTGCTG` the fluorescence intensity was 7180 a.u.
`CTAACGAAGGTTTGAAACGTGGGTGACAAGCCAAGTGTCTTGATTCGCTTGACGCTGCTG` gave a fluorescence intensity of 12600 a.u.
With `AAAAGTATACTCGGAAACGTGATGGAATACCTTAGGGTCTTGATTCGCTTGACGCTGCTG` the fluorescence intensity was 10700 a.u.
`CTTCTGTAAATTTGAATCGTGGGTGGACGCGCCCCGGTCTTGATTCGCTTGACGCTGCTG` has a fluorescence intensity of 8190 a.u.
